{"data": "Results pooled from the literature", "note": "Each numbered part is a random draw from the data of one study; scales do not carry over between parts. Substitutions count along the parent as printed.", "chain of UniProt Q8H174 (whole entry, looked up)": "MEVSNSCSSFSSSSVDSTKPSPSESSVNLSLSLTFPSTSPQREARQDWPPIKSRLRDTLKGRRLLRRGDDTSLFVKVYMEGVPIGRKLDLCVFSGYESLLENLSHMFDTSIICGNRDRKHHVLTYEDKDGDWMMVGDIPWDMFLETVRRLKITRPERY", "chain of UniProt Q9LQE8 (whole entry, looked up)": "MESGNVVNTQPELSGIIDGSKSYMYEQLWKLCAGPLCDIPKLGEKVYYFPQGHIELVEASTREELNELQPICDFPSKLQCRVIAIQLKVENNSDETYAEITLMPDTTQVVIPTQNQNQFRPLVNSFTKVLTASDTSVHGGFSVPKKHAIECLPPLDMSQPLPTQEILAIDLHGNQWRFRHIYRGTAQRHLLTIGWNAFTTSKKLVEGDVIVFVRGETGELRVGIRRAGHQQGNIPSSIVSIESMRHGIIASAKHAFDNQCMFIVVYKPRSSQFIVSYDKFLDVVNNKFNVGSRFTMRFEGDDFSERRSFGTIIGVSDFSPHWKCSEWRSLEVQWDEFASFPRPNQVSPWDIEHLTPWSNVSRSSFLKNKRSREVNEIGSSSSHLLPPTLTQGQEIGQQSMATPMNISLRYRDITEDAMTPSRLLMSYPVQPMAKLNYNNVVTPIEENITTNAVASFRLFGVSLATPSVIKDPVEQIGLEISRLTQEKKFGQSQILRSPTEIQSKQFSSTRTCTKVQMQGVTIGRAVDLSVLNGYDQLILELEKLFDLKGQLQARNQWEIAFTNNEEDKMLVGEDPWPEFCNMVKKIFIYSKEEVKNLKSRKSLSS", "chain of UniProt Q9XFM0 (whole entry, looked up)": "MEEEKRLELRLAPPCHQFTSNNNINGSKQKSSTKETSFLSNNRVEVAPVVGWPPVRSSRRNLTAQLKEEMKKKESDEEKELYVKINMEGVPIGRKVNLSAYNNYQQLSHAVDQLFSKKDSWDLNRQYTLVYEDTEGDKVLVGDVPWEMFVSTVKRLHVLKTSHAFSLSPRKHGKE", "chain of UniProt Q8RYC8 (whole entry, looked up)": "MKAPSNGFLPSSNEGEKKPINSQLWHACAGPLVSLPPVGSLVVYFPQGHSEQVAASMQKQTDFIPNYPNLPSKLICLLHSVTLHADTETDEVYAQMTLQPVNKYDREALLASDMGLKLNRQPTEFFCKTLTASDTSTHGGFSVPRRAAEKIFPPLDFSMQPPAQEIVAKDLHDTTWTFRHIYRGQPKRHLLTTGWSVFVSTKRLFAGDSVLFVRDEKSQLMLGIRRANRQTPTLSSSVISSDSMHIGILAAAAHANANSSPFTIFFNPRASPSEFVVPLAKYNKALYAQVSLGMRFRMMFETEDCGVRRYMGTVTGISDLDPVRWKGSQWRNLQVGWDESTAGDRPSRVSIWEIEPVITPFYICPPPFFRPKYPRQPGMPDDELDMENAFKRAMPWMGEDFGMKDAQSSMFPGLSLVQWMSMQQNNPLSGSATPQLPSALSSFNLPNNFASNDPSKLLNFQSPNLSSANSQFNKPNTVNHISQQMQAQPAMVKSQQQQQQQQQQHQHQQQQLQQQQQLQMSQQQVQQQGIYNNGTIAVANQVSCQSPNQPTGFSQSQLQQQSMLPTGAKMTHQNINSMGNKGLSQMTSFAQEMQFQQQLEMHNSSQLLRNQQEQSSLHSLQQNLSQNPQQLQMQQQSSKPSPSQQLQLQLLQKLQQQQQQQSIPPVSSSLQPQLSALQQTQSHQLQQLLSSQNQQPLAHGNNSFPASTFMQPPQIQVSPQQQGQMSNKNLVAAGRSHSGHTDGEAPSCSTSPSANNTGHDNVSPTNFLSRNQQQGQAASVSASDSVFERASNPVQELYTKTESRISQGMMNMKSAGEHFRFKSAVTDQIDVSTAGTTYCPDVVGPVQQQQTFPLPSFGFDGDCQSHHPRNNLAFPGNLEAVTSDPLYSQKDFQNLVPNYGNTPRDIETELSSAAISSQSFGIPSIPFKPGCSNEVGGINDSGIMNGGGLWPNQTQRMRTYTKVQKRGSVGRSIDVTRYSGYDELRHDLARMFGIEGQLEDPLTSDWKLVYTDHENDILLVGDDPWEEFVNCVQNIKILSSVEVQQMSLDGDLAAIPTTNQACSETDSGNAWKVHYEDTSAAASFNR", "chain of UniProt Q8RYC6 (whole entry, looked up)": "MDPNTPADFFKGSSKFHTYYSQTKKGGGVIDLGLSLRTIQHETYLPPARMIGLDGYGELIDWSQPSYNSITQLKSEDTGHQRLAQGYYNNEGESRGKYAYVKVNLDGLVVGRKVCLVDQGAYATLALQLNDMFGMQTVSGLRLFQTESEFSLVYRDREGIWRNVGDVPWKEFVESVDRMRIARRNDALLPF", "chain of UniProt Q9ZTX8 (whole entry, looked up)": "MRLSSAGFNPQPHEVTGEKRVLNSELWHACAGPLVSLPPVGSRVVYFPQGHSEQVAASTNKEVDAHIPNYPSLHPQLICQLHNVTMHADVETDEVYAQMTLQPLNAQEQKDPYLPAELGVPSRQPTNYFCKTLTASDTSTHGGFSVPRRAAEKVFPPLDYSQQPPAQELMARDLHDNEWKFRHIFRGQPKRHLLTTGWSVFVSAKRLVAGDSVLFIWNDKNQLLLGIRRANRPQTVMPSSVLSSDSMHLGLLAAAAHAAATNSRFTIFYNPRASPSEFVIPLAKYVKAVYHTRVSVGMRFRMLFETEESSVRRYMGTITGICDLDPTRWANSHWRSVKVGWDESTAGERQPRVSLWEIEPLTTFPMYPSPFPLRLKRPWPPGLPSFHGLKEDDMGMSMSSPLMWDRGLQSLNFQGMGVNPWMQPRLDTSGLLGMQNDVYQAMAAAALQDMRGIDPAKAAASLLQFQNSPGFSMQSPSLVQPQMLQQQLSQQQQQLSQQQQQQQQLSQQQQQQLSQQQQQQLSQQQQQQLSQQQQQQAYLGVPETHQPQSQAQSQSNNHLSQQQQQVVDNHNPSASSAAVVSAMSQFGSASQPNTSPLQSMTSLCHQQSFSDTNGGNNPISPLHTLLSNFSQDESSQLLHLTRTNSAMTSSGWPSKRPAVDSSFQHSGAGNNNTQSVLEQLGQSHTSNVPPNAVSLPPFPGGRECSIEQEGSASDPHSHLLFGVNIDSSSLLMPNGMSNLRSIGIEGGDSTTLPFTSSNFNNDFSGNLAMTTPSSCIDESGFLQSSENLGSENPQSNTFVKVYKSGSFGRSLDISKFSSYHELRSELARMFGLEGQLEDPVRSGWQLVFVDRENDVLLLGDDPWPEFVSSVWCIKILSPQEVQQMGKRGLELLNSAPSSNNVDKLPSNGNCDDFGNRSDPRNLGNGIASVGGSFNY", "chain of UniProt Q9XED8 (whole entry, looked up)": "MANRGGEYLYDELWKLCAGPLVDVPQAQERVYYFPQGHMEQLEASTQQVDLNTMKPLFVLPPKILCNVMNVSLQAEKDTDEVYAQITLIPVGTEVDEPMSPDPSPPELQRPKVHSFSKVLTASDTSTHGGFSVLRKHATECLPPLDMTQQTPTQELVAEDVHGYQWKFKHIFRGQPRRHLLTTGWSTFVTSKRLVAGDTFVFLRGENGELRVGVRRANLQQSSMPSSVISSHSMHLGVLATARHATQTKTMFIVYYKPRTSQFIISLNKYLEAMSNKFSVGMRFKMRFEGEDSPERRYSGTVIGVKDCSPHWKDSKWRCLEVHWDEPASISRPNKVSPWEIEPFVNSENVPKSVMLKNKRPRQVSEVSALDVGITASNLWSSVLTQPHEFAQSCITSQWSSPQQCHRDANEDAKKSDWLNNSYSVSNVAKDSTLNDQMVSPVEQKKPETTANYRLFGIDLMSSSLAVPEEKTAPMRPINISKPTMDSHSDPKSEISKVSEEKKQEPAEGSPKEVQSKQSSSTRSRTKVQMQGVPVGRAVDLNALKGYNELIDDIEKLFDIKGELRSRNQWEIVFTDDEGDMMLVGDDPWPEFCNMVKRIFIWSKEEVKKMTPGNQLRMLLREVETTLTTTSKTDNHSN"}
{"data": "Series 1", "target": "Fragile X messenger ribonucleoprotein 1, C-terminal low-complexity region (Fmr1, Mus musculus, UniProt P35922)", "technique": "RNA Bind-n-Seq", "form": "RNA", "matrix": "in vitro", "tested at": "200 nM", "notes": "whole 134-nt RNA, ends assumed", "with": "150 mM LiCl", "relative to": "input library", "reading": "higher = stronger binding", "all molecules": "7-deaza-guanosine replaces G", "constant ends, left off below": "GGGAGUUCUACAGUCCGACGAUC … UGGAAUUCUCGGGUGUCAAGG"}
{"Oligonucleotide": "AAGUCCUGUGCUACACAUCGUAUGUACCGAAUCGGGGCCCCGGGCCCCGGGCCCCGGAAAGUAUUAUGUUACGCCGUUCGGAUCUGCACU", "log2 enrichment": -0.337}
{"Oligonucleotide": "CAAGUCCUGUGCUACACAUCGUAUGUACCGAAUCGGUUUUUGGAAAGGUUUUUGGAAAGUAUUAUGUUACGCCGUUCGGAUCUGCACUUC", "log2 enrichment": -1.94}
{"Oligonucleotide": "AGUCCUGUGCUACACAUCGUAUGUACCGAAUCGGUUUUUUUGGUUUGGAAAAAAAGGAAAGUAUUAUGUUACGCCGUUCGGAUCUGCACU", "log2 enrichment": -3.32}
{"Oligonucleotide": "UCCUGUGCUACACAUCGUAUGUACCGAAUCGGGCCCCCCGGGCCCCCCGGCCCCCCGGGGAAAGUAUUAUGUUACGCCGUUCGGAUCUGC", "log2 enrichment": -0.561}
{"Oligonucleotide": "CCUGUGCUACACAUCGUAUGUACCGAAUCGGGAAAAAAAGGGAAAAAGGGUUUUUUUGGGAAAGUAUUAUGUUACGCCGUUCGGAUCUGC", "log2 enrichment": -2.35}
{"Oligonucleotide": "AAAGGAAGUAAAAACAAAUGGAAAUGCUUCGGAUAGUGGCAGGGGUGGGGGUUGCUAAGGAAAGGGUGGGAUGGGAGUGGGUAAAGAGUU", "log2 enrichment": 1.64}
{"Oligonucleotide": "CUGUGCUACACAUCGUAUGUACCGAAUCGGGGUUUUUGGGGAAAAAAAGGGGUUUUUGGGGAAAGUAUUAUGUUACGCCGUUCGGAUCUG", "log2 enrichment": -1.59}
{"Oligonucleotide": "CUCAAGUCCUGUGCUACACAUCGUAUGUACCGAAUCGGGGAAGGAAGGAAGGGGAAAGUAUUAUGUUACGCCGUUCGGAUCUGCACUUCC", "log2 enrichment": -0.625}
{"data": "Series 2", "target": "CCND2, cyclin fold, Cln2 fusion (human)", "technique": "yeast growth competition, sequencing", "matrix": "yeast", "notes": "weak parent motif", "relative to": "not given", "reading": "higher = stronger binding", "parent": "viral docking peptide; KGVKRKLFAEDSS"}
{"Substitution": "L7K", "normalised enrichment score": 0.612}
{"Substitution": "A9Q", "normalised enrichment score": -0.082}
{"Substitution": "L7R", "normalised enrichment score": 0.15}
{"Substitution": "D11T", "normalised enrichment score": -0.238}
{"Substitution": "K4G", "normalised enrichment score": 0.0936}
{"Substitution": "S12Q", "normalised enrichment score": -0.736}
{"Substitution": "V3F", "normalised enrichment score": 0.322}
{"Substitution": "V3L", "normalised enrichment score": 0.205}
{"Substitution": "K6M", "normalised enrichment score": 0.228}
{"Substitution": "G2T", "normalised enrichment score": 0.394}
{"Substitution": "V3E", "normalised enrichment score": 0.25}
{"Substitution": "R5C", "normalised enrichment score": 0.205}
{"Substitution": "D11P", "normalised enrichment score": -0.0788}
{"Substitution": "A9E", "normalised enrichment score": 0.542}
{"Substitution": "K6P", "normalised enrichment score": 0.129}
{"Substitution": "F8Q", "normalised enrichment score": 0.291}
{"Substitution": "A9F", "normalised enrichment score": 0.231}
{"Substitution": "K4D", "normalised enrichment score": -0.166}
{"Substitution": "G2C", "normalised enrichment score": 0.312}
{"Substitution": "E10T", "normalised enrichment score": -0.388}
{"Substitution": "S12C", "normalised enrichment score": 0.312}
{"data": "Series 3", "Molecule": "B1 (IAA13)", "technique": "two-hybrid", "reading": "higher = firmer interaction", "B1": "IAA13 (Arabidopsis thaliana, UniProt Q38831); chain MITELEMGKGESELELGLGLSLGGGTAAKIGKSGGGGAWGERGRLLTAKDFPSVGSKRAADSASHAGSSPPRSSSQVVGWPPIGSHRMNSLVNNQATKSAREEEEAGKKKVKDDEPKDVTKKVNGKVQVGFIKVNMDGVAIGRKVDLNAHSSYENLAQTLEDMFFRTNPGTVGLTSQFTKPLRLLDGSSEFVLTYEDKEGDWMLVGDVPWRMFINSVKRLRVMKTSEANGLAARNQEPNERQRKQPV"}
{"partner": "ARF19 948-1086 (Arabidopsis thaliana, UniProt Q8RYC8)", "relative to": "out of 3 tests", "positive tests": 2}
{"partner": "ARF9 519-638 (Arabidopsis thaliana, UniProt Q9XED8)", "notes": "weak activation fusion", "relative to": "out of 2 tests", "positive tests": 2}
{"partner": "IAA28 (Arabidopsis thaliana, UniProt Q9XFM0)", "relative to": "out of 2 tests", "positive tests": 1}
{"partner": "IAA31 (Arabidopsis thaliana, UniProt Q8H174)", "relative to": "out of 2 tests", "positive tests": 0}
{"partner": "IAA32 (Arabidopsis thaliana, UniProt Q8RYC6)", "relative to": "out of 4 tests", "positive tests": 0}
{"partner": "ARF14 497-605 (Arabidopsis thaliana, UniProt Q9LQE8)", "relative to": "out of 4 tests", "positive tests": 0}
{"partner": "ARF6 790-935 (Arabidopsis thaliana, UniProt Q9ZTX8)", "relative to": "out of 4 tests", "positive tests": 4}
{"data": "Series 4", "target": "RING finger protein unkempt homolog, zinc fingers 1-6, SBP tag (UNK, Homo sapiens, UniProt Q9C0B0, residues 30-357)", "technique": "RNA Bind-n-Seq", "form": "RNA", "matrix": "in vitro", "tested at": "100 nM", "notes": "RNA with constant flanks, vertebrate orthologous sites, ends assumed", "relative to": "input RNA pool", "reading": "higher = stronger binding", "constant ends, left off below": "GGGAGUUCUACAGUCCGACGAUC … CAACAGAGGAUUGAGCAUCA", "chain of UniProt Q9C0B0 (30-357, looked up)": "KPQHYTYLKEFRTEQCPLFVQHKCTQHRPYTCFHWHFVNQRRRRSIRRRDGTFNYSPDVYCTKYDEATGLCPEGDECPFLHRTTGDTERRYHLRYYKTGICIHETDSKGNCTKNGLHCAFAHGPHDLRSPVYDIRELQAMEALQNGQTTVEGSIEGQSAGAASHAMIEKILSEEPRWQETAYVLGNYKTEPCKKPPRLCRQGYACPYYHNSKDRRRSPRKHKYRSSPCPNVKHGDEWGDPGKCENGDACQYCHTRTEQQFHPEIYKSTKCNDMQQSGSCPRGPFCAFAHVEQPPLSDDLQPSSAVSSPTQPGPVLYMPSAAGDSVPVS"}
{"Oligonucleotide": "GUGACUUUGGAAGUCCGCACAGUGUCAGUGCAGAUACUAUUUAGCCCGGGACUUGGUGACUGGGCUCAUUUUCUUCUUUCCAAUCGUAGGUCUCUGCCGCAAACAUGCUCCGCCACAUCU", "bound/input enrichment [ratio]": 0.562}
{"Oligonucleotide": "UCCCAGCACUCUGAUAAAAAGUGUGGACUGGUUGCUUGUAUUUUCCCUAUUCUUUUUAAUCAGUUUUAUUAUGUACGCUACCAUUCGAACUGAGAGUAUUCGGUGGCUGAUUCCGGGACA", "bound/input enrichment [ratio]": 0.505}
{"Oligonucleotide": "AUCUUAUAUUGUGGCAUAUAGUCAACAUUGAAAGUAGACCAGCUCUGCUGAUUUGAAAUUUAGAUUUUUUAAUUAUGUACUGGGGACAGGUUUUUUGUCGCUUUACAUUGCUUCCUAGUU", "bound/input enrichment [ratio]": 5.22}
{"Oligonucleotide": "UGAAGAAGAGACCCCUGUGGUUUCUAAUAGGUAAUUUGCUCGUUUUUAGAUAUUUCACUCAACAAUUCUUGACUGAACGGGUAUGCCAACAUUUUUUCACAUAAGGGUGAGCAGUCUUCA", "bound/input enrichment [ratio]": 0.573}
{"Oligonucleotide": "AAUCACUCUAAUUGUAAUCUGAAUAAAGUGUAACAUUGUGUAGCCUUUUUUUGUAUAAAAUAGACAAAUAGAAAUGGUCCAAUUAGUUUCCUUUUUAAUAUGCUUAAAAUAAGCAGGUGG", "bound/input enrichment [ratio]": 1.56}
{"Oligonucleotide": "CAAUUCAAUGGUUGAGGGUUCAGAACUCAAAAAGGUUCGCUCCAACUCUAGAAUAUACCAUAGGUAUUUUUUACUAGAUGCUGACAUGCAAAGCCUGAGGUGGGAGCCAUCUAAGAAGGA", "bound/input enrichment [ratio]": 0.268}
{"Oligonucleotide": "UUACAGUCAUUGAUGGACUCUAUUUUUUUAUUAUUACUUGGACCUUGGUCGUUUUUAUACUAGCAAGAUGUCUUGUUUUAAUUUGUGUUUUUUUUGGGGGGAGGGAGUGAACUUGCUGAU", "bound/input enrichment [ratio]": 2.14}
{"Oligonucleotide": "AGAGCCCGCUCCCUGCUGCCUGCCGGGUGUGUGACUGAGGGCGGAGCACUCGCCAGCCUGCAGGGAAGCCAUAGUAUUUUUUUUUCCUGCCUCAGACUCCCCAAAGCCUUCAAGCAGAAG", "bound/input enrichment [ratio]": 6.76}
{"note": "For quick reference, copied from above (series 2):"}
{"Substitution": "A9F", "normalised enrichment score": 0.231}
{"Substitution": "K4D", "normalised enrichment score": -0.166}
{"Substitution": "G2C", "normalised enrichment score": 0.312}
{"Substitution": "E10T", "normalised enrichment score": -0.388}
{"Substitution": "S12C", "normalised enrichment score": 0.312}
